Published values collected from several papers.
Every numbered part comes from another study and shows a few of its results, in no order. Changes are numbered by the printed parent chain.

Block 1 — method: RNA Bind-n-Seq; form: RNA; matrix: in vitro; concentration: not given; reference: input RNA pool; reading: higher = stronger binding
Target: RING finger protein unkempt homolog, zinc fingers 1-6, GST-SBP tag (UNK, Homo sapiens, UniProt Q9C0B0, residues 30-357)
UniProt Q9C0B0, sequence (30-357, looked up): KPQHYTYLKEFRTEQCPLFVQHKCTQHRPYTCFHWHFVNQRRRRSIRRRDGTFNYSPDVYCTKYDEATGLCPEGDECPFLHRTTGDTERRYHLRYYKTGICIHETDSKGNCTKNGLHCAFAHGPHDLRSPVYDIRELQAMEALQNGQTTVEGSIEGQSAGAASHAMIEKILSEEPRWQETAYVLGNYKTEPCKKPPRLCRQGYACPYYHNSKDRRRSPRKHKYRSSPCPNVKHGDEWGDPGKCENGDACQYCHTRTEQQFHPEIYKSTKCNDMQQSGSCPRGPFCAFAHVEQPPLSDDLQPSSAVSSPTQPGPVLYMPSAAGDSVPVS
Setting: RNA with constant flanks, human and mouse sites, ends assumed
Constant ends, left off below: GGGAGUUCUACAGUCCGACGAUC … CAACAGAGGAUUGAGCAUCA
Sequence	bound/input enrichment
AUGAGGGCUCCUAAACACUUUCUUCCUGAGAUGUUAAGCAAAGUAAUCAUCCUGUCACUAGAUAGAAGCGAUGAAGAUAAAGAAAAAGCAAGUUCUUUGAUCAGUUUACUCAAACAGGAA	0.22 ratio
UCUGAUGUCUCCCAGAUGAAUGAUAGACUGGGGGAAGAUGAGUCCUUGCUAAUGAAAUUGUAUAGCUUCCUCCUAAAUGAGUCCCCCUUGAACCCACUACUCGCCAGUUUCUUCAGCAAG	0.324 ratio
AUAAAAUGAAACUAGGGCUGAGCUAGUUAGCCCUCACUAGCCAAACUGAAACUCUAUGCAACAUUAAAAGAAGAGAUCCAUCAUGUAGCUUGUGACACUUUUAUUUUAUUAGUCACCGGG	0.345 ratio
GCCAGCAAGCCUCAGAGUAUCCAAGAAUCAACUGGCAGUAUAAUUGAAGUUCUGAGUAAAAUAGAUUCAGAAGGAGGAGUUUCAGCAAAUCAUACUAGUCGUGCAACGUCUACAGCAACA	0.5 ratio
CUGCGCUCGCUGGCCUUCAGGAAGGAGUUCCAGGACGCUAGCCUCCGCAGUAGCACCUUUAGCUCCUUUGACAAUGACAUAGAGAACCACCUCAUCGGUGGGCACAAUGUGGUUCAGCCC	1.43 ratio
GAUAUAGAAGUGAGACAUGCACUCAACUAUAAUCAGAGACAAUUGAAAGAACUGAAAGAUAGUAAAACUGAUCGACUAAAAAGAUUUGGUCCUCAUGUUCCAGCUCUUCUGGAAGCAAUA	0.324 ratio
UUUUAUAUCAAACAAAAGAAAGCUAGACCUUCCGUCAAAGAAACUCUUCAGAAGUCUGGUGUUAGGAAAGAGUUUCCAAUUACUGAGGCAGUAGGAUCUGAUAAGACAAAUAGGCAUCCC	1.18 ratio
GGUUUGAUGCCUGGUCCUUCAAAUGAUUUCAAGUAUGGAUUGAUACCAGGUACUUCAAAUGAUUUCAAGUAUGGAUUGAUACCAGGUGCUUCAAAUGAUUUCAAGUAUGGAUUAUUGCCA	0.159 ratio

Block 2 — method: RNA Bind-n-Seq; form: RNA; matrix: in vitro; concentration: 20 nM; setting: 6-mer, flanks averaged, single round; with: 150 mM LiCl; reference: input library; reading: higher = stronger binding
Target: TAR DNA-binding protein 43, full length, His tag (TARDBP, Homo sapiens, UniProt Q13148, residues 1-414)
Sequence	6-mer enrichment (R)
AACUAU	0.901
CGCAUC	0.857
GGUGUC	1.11
GGGAUA	1.01
GGAGGC	1.11
UAAAAC	0.869
CGGGUA	0.981
GCCAAG	0.917

Other studies, line by line
P1: PafA, mature enzyme, eGFP fusion (Elizabethkingia meningoseptica, UniProt Q9KJX5); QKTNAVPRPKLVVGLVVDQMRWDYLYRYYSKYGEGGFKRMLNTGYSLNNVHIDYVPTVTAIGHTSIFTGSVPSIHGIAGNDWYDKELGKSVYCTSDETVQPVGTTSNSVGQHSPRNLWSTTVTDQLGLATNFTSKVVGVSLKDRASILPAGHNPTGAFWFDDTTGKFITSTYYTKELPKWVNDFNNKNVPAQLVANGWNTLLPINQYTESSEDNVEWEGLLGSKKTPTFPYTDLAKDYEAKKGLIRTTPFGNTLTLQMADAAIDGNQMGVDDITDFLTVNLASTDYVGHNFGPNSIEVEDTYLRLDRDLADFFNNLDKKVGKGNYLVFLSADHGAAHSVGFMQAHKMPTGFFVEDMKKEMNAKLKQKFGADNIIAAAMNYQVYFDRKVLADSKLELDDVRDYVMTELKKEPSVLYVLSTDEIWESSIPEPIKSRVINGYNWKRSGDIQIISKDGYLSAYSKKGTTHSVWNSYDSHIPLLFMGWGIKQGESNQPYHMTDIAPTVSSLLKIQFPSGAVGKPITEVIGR
Substance	target or system	test	test system	conditions	scale	endpoint	value
HNRNPM (Homo sapiens, UniProt P52272)	MYEF2 (Homo sapiens, UniProt Q9P2K5)	cross-linking MS	–	hits only	–	interaction screen	cross-linked
P1 L141G	inorganic phosphate, free oxyanion	microfluidic competitive inhibition	in vitro, cell-free expressed	not given, derived from inhibition constants, unchanged parent 615000 nM	lower = stronger binding	phosphate dissociation constant	1.52 mM
GNL2 (Homo sapiens, UniProt Q13823)	RPF2 (Homo sapiens, UniProt Q9H7B2)	cross-linking MS	cell fractions	with: DSSO	–	cross-linked residues	T265 to K270
IPO7 (Homo sapiens, UniProt O95373)	H1-10 (Homo sapiens, UniProt Q92522)	cross-linking MS	cell fractions	with: DMTMM	–	cross-linked residues	D733 to K42
NME2 (Homo sapiens, UniProt P22392)	NME3 (Homo sapiens, UniProt Q13232)	cross-linking MS	cell fractions	with: DMTMM	–	cross-linked residues	K85 to D115
